Measured values of several laboratories.
Compare with care: the assays were run in different laboratories. “And” joins repeats or separate records; there may be more than shown. ± marks the error that the study gave.

Cn1cc(Nc2nc(N)nc(-c3cccc(-n4ccc5cc(C6CC6)cc(F)c5c4=O)c3CO)n2)cn1  inhibition (CD63 upregulation, anti-IgE-induced; human, multiple ascending dose, whole blood basophils ex vivo; 150 mg twice daily, day 14, 2 h): 85%
CC1(C)CCC(c2ccc(Cl)cc2)=C(CN2CCN(c3ccc(C(=O)NS(=O)(=O)c4ccc(N[C@H](CCN5CCOCC5)CSc5ccccc5)c(S(=O)(=O)C(F)(F)F)c4)cc3)CC2)C1  EC50 (cell killing; canine lymph node CD3+ T cells, dog 33; 24 h): 81 nM
Cc1cc(Nc2cc3ncccc3c(N[C@@H]3C[C@H]4CC[C@@H](C3)N4CCC#N)n2)n[nH]1  T cell infiltration (BALB/c mice, oxazolone colitis, colonic mucosa; oral, 30 mg/kg twice daily): decreased
COc1ncc(-c2nc3c(n2C(C)C)[C@H](c2ccc(Cl)cc2)N(c2cc(Cl)cn(C)c2=O)C3=O)c(OC)n1  best overall response (International Working Group criteria; human acute myeloid leukemia patients; oral, 150 mg, response CRi, high-dose, other doses): 16.7%
CC[C@@H](C)[C@@H](NC(=O)[C@@H](Cc1ccc(O)cc1)NC(=O)[C@H]1CCCN1C(=O)[C@@H](CCCNC(=N)N)NC(=O)[C@H](N)Cc1c[nH]cn1)C(=O)N[C@H](C)C(=O)N[C@H](Cc1c[nH]cn1)C(=O)N[C@H](CCCNC(=N)N)C(=O)N[C@@H](C(=O)N[C@H](Cc1ccc(O)cc1)C(=O)N[C@H](CO)C(=O)N[C@H](Cc1ccccc1)C(N)=O)C(C)C  IFN-γ+ CD8+ T cell frequency (ex vivo flow cytometry; GL261-Luc brain tumour mice, spleen; dose not given): 3.17% and 3.89% and 4.22% and 2.48%
COc1cc(-c2ccccc2)ncc1C(=O)Nc1ccc2c(=O)[nH]c(-c3ccc(C(C)(C)O)cc3)nc2c1  normalized enrichment score (RNA-seq GSEA, refers to: HALLMARK_BILE_ACID_METABOLISM; organoids, small intestinal, Apc Q1405X, mouse; dose not given, 3 days, wild-type organoids; baseline: DMSO, direction not given): -1
COc1cc2cc(-c3ccc(CC(=O)Nc4cc(C(C)(C)C(F)(F)F)no4)cn3)cnc2cc1OC  disease control rate (human RET-altered advanced solid tumours; 75 mg, phase I pooled, RECIST 1.1): 51%
NC(=O)c1cnc2[nH]ccc2c1N[C@@H]1[C@@H]2CC3C[C@H]1C[C@@](O)(C3)C2  change from baseline (flow cytometry, refers to: CD4+ naive T cells; Japanese healthy subjects, peripheral blood; oral, 30 mg twice daily, day 7): -1.37%
Cc1coc([C@H]2C[C@H]3[C@@H](CF)SC(N)=N[C@@]3(c3ccc(F)cc3F)CO2)n1  Aβ42 level (refers to: Aβx-42; Mus musculus wild-type, brain; subcutaneous, 80 mg/kg, 14 h): 0.73 ng/g
CN1CC[C@@H](c2c(O)cc(O)c3c(=O)cc(-c4ccc(C(F)(F)F)cc4Cl)oc23)[C@@H]1CO  MCL1 mRNA level (quantitative RT-PCR; AML patients, PBMCs; oral, 100 to 200 mg; baseline: pretreatment): decreased
Cc1cc([C@H]2C[C@H]3[C@@H](CF)SC(N)=N[C@@]3(c3ccc(F)cc3F)CO2)on1  Aβ42 level (refers to: Aβx-42; Mus musculus wild-type, brain; subcutaneous, 100 mg/kg, 5 h): 0.39 ng/g
Cc1cc(-c2nc(C(=O)Nc3cc4oc(N5CCOCC5)nc4nc3N3CC[C@@H](O)C3)co2)ccn1  pP38 positive cells (3D immunohistochemistry, CLARITY, refers to: phospho-p38; mouse, intracranial A20 tumour; dose not given; baseline: total cells): 11.8%
O=C(O)CNC(=O)Cc1ccccc1  sarcomere length (ventricular cardiomyocytes, C57BL/6 mouse; dose not given, 0.048 s): 1.72 µm
CC(C)[C@H](C(=O)Nc1ccc(C(=O)NO)cc1)c1ccccc1  tumour volume (volumetric MRI; human, left cistern meningioma; dose not given, day 23): 8.4 cm3
CCN1CCN(Cc2ccc(Nc3ncc(F)c(-c4cc(F)c5nc6n(c5c4)[C@H](C)CCC6)n3)nc2)CC1  median progression-free survival (human advanced solid tumours; 400 mg, phase Ia monotherapy RECIST 1.1): 22.3 months
OC(CCN1CCCCC1)(c1ccccc1)C1CC2C=CC1C2 (stereo not shown)  EEG Beta2-power Pz-O2 (resting-state EEG; healthy elderly humans; oral, 2 mg, eyes closed, LS mean): 1.1 µV²
CC#CC(=O)N[C@H]1CCCN(c2c(F)cc(C(N)=O)c3[nH]c(C)c(C)c23)C1  change from baseline in serum IgM (healthy volunteers, single ascending dose, serum; 1 mg, day 10): 60 mg/L
C[C@H]1O[C@@H](O[C@H]2CC[C@@]3(C)[C@@H](CC[C@]4(C)[C@@H]3C=C[C@]35OC[C@@]6(CCC(C)(C)C[C@H]63)[C@@H](O)C[C@]54C)[C@]2(C)CO)[C@H](O)[C@@H](O[C@@H]2O[C@H](CO)[C@@H](O)[C@H](O)[C@H]2O)[C@H]1O  SIRT1 to β-actin ratio (Western blot; mice, normal diet, liver; dose not given, high dose; baseline: control mice): 0.86 fold change and 0.967 fold change and 1.1 fold change
c1ccc(-c2n[nH]cc2-c2ccnc3ccccc23)nc1  log2 fold change (kinase binding, competitor, MIB/MS competition, refers to: SHA3; Candida albicans cell lysate; 1 µM; baseline: DMSO): 0.939
O=C(O[C@@H]1[C@@H](O)[C@H](Oc2cc(O)c3c(c2)O[C@H](c2ccccc2)CC3=O)O[C@@H]2COC(=O)c3cc(O)c(O)c(O)c3-c3c(cc(O)c(O)c3O)C(=O)O[C@@H]12)c1cc(O)c(O)c(O)c1  platelet accumulation (laser-injury thrombosis model; mouse, cremaster arterioles; intraperitoneal, 25 µg/g; baseline: control): 29.6 ± 9.08%
Cc1nc(N(Cc2ccccc2)c2ccc3c(c2)/C(=C/c2ccccc2)C(=O)N3Cc2ccccc2)c2ccccc2n1 (mixture of isomers)  p-PI3Kα expression (immunohistochemistry; LLC, C57BL/6 mouse, syngeneic NSCLC model, tumour tissue; dose not given): decreased
C[C@H](Oc1ccc(Br)cc1-c1ccon1)C(=O)O  difference from placebo (muscle velocity recovery cycle; human, tibialis anterior muscle; 600 mg once daily, first response peak at 30 Hz, multiple ascending dose): 13.4%
N#Cc1ccc2c(c1)[C@H]1CCCN(C(=O)c3ccc4[nH]cnc4c3)[C@H]1C2  change in HOMA-IR (human, plasma; 240 mg, day 15, 360 h; baseline: placebo and baseline): -13.5%
N#Cc1ccn2c(-c3ccncc3)c(-c3ccc(F)cc3)nc2c1  log2 fold change (kinase binding, competitor, MIB/MS competition, refers to: HSL1; Candida albicans cell lysate; 100 nM; baseline: DMSO): -0.025
O=C(COc1ccc(Cl)cc1)NC12CC(c3nnc([C@H]4C[C@@H](OC(F)(F)F)C4)o3)(C1)C2  CHAC1 mRNA change (healthy human, PBMC; 145 mg once daily, day 15, 24 h post-dose, median, with: sodium arsenite ex vivo; baseline: baseline): -93.5%
Cc1ccc(NC(=O)C2(c3ccc4c(c3)OC(F)(F)O4)CC2)nc1-c1cccc(C(=O)O)c1  contraction amplitude (isolated rat colon; 1 nM to 10 µM): no effect
NCC(=O)Nc1cncc(-c2nn3c(=O)cc(N4CCNCC4)nc3s2)c1  inhibition (ADP-induced platelet aggregation, light transmission aggregometry; human, stable CAD on aspirin, ex vivo platelets; subcutaneous, 0.04 mg/kg, 240 min post-dose, mean value, with: ADP 20 µM): 0%
COc1nc(NCc2cn(-c3ccc(NC(=O)c4ccc([N+](=O)[O-])cc4)cc3)nn2)nc(OC)n1  maximum non-toxic concentration (MTT; normal colonocytes, rat; 72 h): 3.48 ± 0.1 nM
C[C@H]1C[C@H]2CSC(N)=N[C@@]2(c2nc(NC(=O)c3ccc(OC(F)F)cn3)cs2)CO1  percent change from baseline (refers to: total Aβ; healthy adults, plasma; 275 mg once daily, day 1; baseline: placebo): -64%
Cc1cc(C)c(CNC(=O)c2cc(Cl)c3c(c2C)O[C@@](C)([C@H]2CC[C@H](N(C)C)CC2)O3)c(=O)[nH]1  overall response rate (relapsed/refractory non-Hodgkin lymphoma patients; dose not given, efficacy set): 55%
CCO[C@H]1CCN(Cc2c(OC)cc(C)c3[nH]ccc23)[C@H](c2ccc(C(=O)O)cc2)C1  PNH red cell clone size (refers to: PNH-type erythrocytes; PNH patients, blood; 25 mg/100 mg, week 4, mean): 65.9%
Cc1n[nH]c2ccc(-c3cc(OC[C@@H](N)Cc4ccccc4)cnc3-c3ccoc3)cc12  log2 fold change (kinase binding, competitor, MIB/MS competition, refers to: MCK1; Candida albicans cell lysate; 1 µM; baseline: DMSO): 0.0618
FC(F)(F)Oc1cccc(-c2cnc3ccc(-c4ccncc4)nn23)c1  tumour size (MDA-MB-231 xenograft, NSG mouse; oral, 10 mg/kg daily, day 23; higher = larger tumour): 0.307 a.u. and 0.325 a.u. and 0.256 a.u. and 0.126 a.u. and 0.211 a.u.
C[C@@H](NC(=O)N1C(=O)[C@H](Cc2ccnc(N)c2)[C@H]1C(=O)O)C1CCCCC1  ACT AUEC (human; iv infusion, 1.5 mg/kg/h, 24 h, unit not given; baseline: baseline): 135
CSCCNc1nc(SCCC(F)(F)F)nc2c1ncn2[C@@H]1O[C@H](COP(=O)(O)OP(=O)(O)C(Cl)(Cl)P(=O)(O)O)[C@@H](O)[C@H]1O  inhibition (platelet aggregation, light transmission aggregometry; human patients, platelet-rich plasma; dose not given, 30 min, with: TRAP 15 µM): 15.6 ± 14.5%
Cc1cc(F)cc2c(CCC(=O)N[C@@H]3C(=O)NC[C@H]3O)c(-c3ccc(F)cc3)[nH]c12  urine albumin/creatinine ratio (APOL1 G2 mice, IFNγ-induced; 30 mg/kg twice daily, day 7): 2740 µg/mg and 15800 µg/mg and 15000 µg/mg and 1390 µg/mg and 9790 µg/mg
CC(C)NCC(O)c1ccc(O)c(O)c1 (stereo not shown)  sarcomere length (ventricular cardiomyocytes, C57BL/6 mouse; dose not given, 0.232 s): 1.53 µm
C[C@@H]1CCC[C@H](n2cnc(-c3cc(Cl)ccc3-n3cc(Cl)nn3)cc2=O)c2cc(ccn2)-c2c(cnn2C(F)F)NC1=O  concentration for aPTT prolongation (cynomolgus monkey plasma; IC1.5× aPTT, Actin FS reagent): 500 nM
CN[C@@H]1COc2c(S(=O)(=O)NC(=O)Nc3c4c(cc5c3CCC5)CCC4)cnn2C1  inhibition (refers to: IL-18; human participants, whole blood ex vivo; 300 mg twice daily, multiple doses, 145 h, IL-18, circulating, adjusted for, with: LPS/ATP; baseline: baseline): 93.5%
C[C@@H](Nc1cc(F)cc(F)c1)c1cc(C(=O)N(C)C)cc2c(=O)cc(N3CCOCC3)oc12  pPRAS40 H-score change (immunohistochemistry, refers to: phospho-PRAS40; human, tumor biopsy; oral, 120 mg twice daily continuous, 264 h after first dose; baseline: baseline, direction not given): -4.88%
COc1nnc2ccc(N3CCC(c4ccc(OCCN5CCN(C)C(=O)[C@H]5C)cc4)CC3)nn12  time above HEXIM1 threshold (human patients; 40 mg once daily, 2-fold above baseline): 4.32 h
Cc1noc(C)c1-c1cc(C(O)(c2ccccn2)c2ccccn2)c2nc(C3CC3)[nH]c2c1  maximum inhibition (refers to: CCR2 expression; human, peripheral blood; 1.4 mg, day 1, 1599 study): 43.3%
N=C(N)NCCC[C@H](NC(=O)[C@H](CCCNC(=N)N)NC(=O)[C@H](CCCCN)NC(=O)[C@H](CCC(N)=O)NC(=O)[C@H](CCCCN)NC(=O)[C@H](Cc1ccc(O)cc1)NC(=O)[C@@H](N)CCCCN)C(=O)N[C@@H](CO)C(=O)N[C@@H](Cc1ccc(O)cc1)C(=O)N[C@@H](CCCCN)C(=O)O  median change in Schiff score (human, dentin hypersensitivity patients; topical to tooth, 5 µg/tooth repeated, day 36, phase 1/2a trial; direction not given): -1
C=CCn1c(=O)c2cnc(Nc3ccc(N4CCN(C)CC4)cc3)nc2n1-c1ccc2c(n1)[C@@](O)(CC)CC2  tumour volume difference (LNCaP xenograft, BALB/c nude mice; oral, 80 mg/kg once daily x 21, day 22): 458 ± 13.3 mm3
COc1nc(NCc2cn(-c3ccc(C(=O)Nc4ccc(C(F)(F)F)cc4)cc3)nn2)nc(OC)n1  maximum non-toxic concentration (MTT; normal colonocytes, rat; 72 h): 43.4 ± 0.87 nM
CCOCc1nc(O)c(-c2nnc(Cc3ccc(Cl)cn3)o2)c(O)c1-c1c(OC)cccc1OC  MAP change (instrumented anaesthetised rat; intravenous infusion, 1 µg/kg/min for 15 min, 15 min; baseline: baseline): -1.2 ± 0.4%

Repeated from above:
O=C(O[C@@H]1[C@@H](O)[C@H](Oc2cc(O)c3c(c2)O[C@H](c2ccccc2)CC3=O)O[C@@H]2COC(=O)c3cc(O)c(O)c(O)c3-c3c(cc(O)c(O)c3O)C(=O)O[C@@H]12)c1cc(O)c(O)c(O)c1  platelet accumulation (laser-injury thrombosis model; mouse, cremaster arterioles; intraperitoneal, 25 µg/g; baseline: control): 29.6 ± 9.08%
Cc1nc(N(Cc2ccccc2)c2ccc3c(c2)/C(=C/c2ccccc2)C(=O)N3Cc2ccccc2)c2ccccc2n1 (mixture of isomers)  p-PI3Kα expression (immunohistochemistry; LLC, C57BL/6 mouse, syngeneic NSCLC model, tumour tissue; dose not given): decreased
C[C@H](Oc1ccc(Br)cc1-c1ccon1)C(=O)O  difference from placebo (muscle velocity recovery cycle; human, tibialis anterior muscle; 600 mg once daily, first response peak at 30 Hz, multiple ascending dose): 13.4%
N#Cc1ccc2c(c1)[C@H]1CCCN(C(=O)c3ccc4[nH]cnc4c3)[C@H]1C2  change in HOMA-IR (human, plasma; 240 mg, day 15, 360 h; baseline: placebo and baseline): -13.5%
N#Cc1ccn2c(-c3ccncc3)c(-c3ccc(F)cc3)nc2c1  log2 fold change (kinase binding, competitor, MIB/MS competition, refers to: HSL1; Candida albicans cell lysate; 100 nM; baseline: DMSO): -0.025
O=C(COc1ccc(Cl)cc1)NC12CC(c3nnc([C@H]4C[C@@H](OC(F)(F)F)C4)o3)(C1)C2  CHAC1 mRNA change (healthy human, PBMC; 145 mg once daily, day 15, 24 h post-dose, median, with: sodium arsenite ex vivo; baseline: baseline): -93.5%
